Published values pooled from the literature.
Parts stem from different laboratories: compare values within a part only. Positions count from the first letter of the parent shown.

Sample 1 — technique: RNA Bind-n-Seq; molecule type: RNA; sample: in vitro; tested at: 1 µM; notes: whole 134-nt RNA, ends assumed; together with: 150 mM KCl; baseline: input library; direction: higher = stronger binding
Target: Ras GTPase-activating protein-binding protein 1, C-terminal RGG region (G3BP1, Homo sapiens, UniProt Q13283)
Chain of UniProt Q13283 (whole entry, looked up): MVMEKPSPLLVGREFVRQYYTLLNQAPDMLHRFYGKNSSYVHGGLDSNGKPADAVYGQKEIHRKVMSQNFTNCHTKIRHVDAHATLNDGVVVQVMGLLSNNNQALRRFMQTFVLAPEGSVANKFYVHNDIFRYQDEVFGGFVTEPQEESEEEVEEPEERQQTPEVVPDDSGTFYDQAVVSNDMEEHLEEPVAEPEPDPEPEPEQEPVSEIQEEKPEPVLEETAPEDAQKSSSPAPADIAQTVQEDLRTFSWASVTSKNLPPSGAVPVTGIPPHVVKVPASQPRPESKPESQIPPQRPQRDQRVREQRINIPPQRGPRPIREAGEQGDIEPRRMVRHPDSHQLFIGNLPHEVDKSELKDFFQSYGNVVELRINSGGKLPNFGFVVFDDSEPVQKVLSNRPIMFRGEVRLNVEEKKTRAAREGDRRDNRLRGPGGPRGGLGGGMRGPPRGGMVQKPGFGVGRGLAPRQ
All sequences stand within: GGGAGUUCUACAGUCCGACGAUC … UGGAAUUCUCGGGUGUCAAGG
Oligonucleotide	log2 enrichment
GUCCUGUGCUACACAUCGUAUGUACCGAAUCGGGGAGGGGUUUGGGGUUUUUUUGGGGAAAGUAUUAUGUUACGCCGUUCGGAUCUGCAC	2.32
UCUUGUAUGACUUAACCCCUGUUUCUAAUACAGGGGCCGCUCUCCUCAGCCUCCUGCUGAAGAGGAUGAAGAUGACUUUGAUGAUACCCU	-0.717
GUCCUGUGCUACACAUCGUAUGUACCGAAUCGGAAAAAAAGGUUUUUUUGGUUUUUGGAAAGUAUUAUGUUACGCCGUUCGGAUCUGCAC	-2.17
CAAGUCCUGUGCUACACAUCGUAUGUACCGAAUCGGGUGGGAAAGGGAAAAAGGGAAAGUAUUAUGUUACGCCGUUCGGAUCUGCACUUC	1.06
GUGCUACACAUCGUAUGUACCGAAUCGGGGUUUUUUUGGGGUUUUUUUGGGGAAAAAAAGGGGAAAGUAUUAUGUUACGCCGUUCGGAUC	0.101
ACCAUGCAGGUGGGCAUCUUUGGGAAGUGGGGCAAGGGGGGGAUAGGGUGGGGGGUAACACUUUGGGAACAGGUGGUCCCAGGUCGUUUC	2.02
UCCCUGAGACGGCGGGCAACAGCAUCGGCAGGAACGCCAUGGCCGUCCCCUCCCAGCUCUUACCUUACCAUCGACCUCACAGACGACACA	-0.559
AGUCCUGUGCUACACAUCGUAUGUACCGAAUCGGGAAAAAAAGGGAAAAAGGGAGGGAAAGUAUUAUGUUACGCCGUUCGGAUCUGCACU	0.905
CUCAAGUCCUGUGCUACACAUCGUAUGUACCGAAUCGUGUGUGUGUGUGUGUGUAAAGUAUUAUGUUACGCCGUUCGGAUCUGCACUUCC	0.563

Sample 2 — target: UBE2L6 UBC core domain (UniProt O14933); technique: yeast two-hybrid; sample: yeast; notes: mostly zero background; baseline: not given; direction: higher = stronger interaction
B1: SH3RF2 RING domain (UniProt Q8TEC5); chain DDLTLLDLLECPVCFEKLDVTAKVLPCQHTFCKPCLQRVFKAHKELRCPECRTPVFSNIEAL
B2: TRIM5 RING domain (UniProt Q9C035); chain ILVNVKEEVTCPICLELLTQPLSLDCGHSFCQACLTANHKKSMLDKGESSCPVCRISYQPENIRP
B3: TRIML1 RING domain (UniProt Q8N9V2); chain LMENLREELTCFICLDYFSSPVTTECGHSFCLVCLLRSWEEHNTPLSCPECWRTLEGPHFQS
B4: RNF111 RING domain (UniProt Q6ZNA4); chain EGTEEDTEEKCTICLSILEEGEDVRRLPCMHLFHQVCVDQWLITNKKCPICRVDIEAQLPSE
B5: RC3H1 RING domain (UniProt Q5TC82); chain QAPQWTDFLSCPICTQTFDETIRKPISLGCGHTVCKMCLNKLHRKACPFDQTTINTDIELL
B6: TRIM13 RING domain (UniProt O60858); chain MELLEEDLTCPICCSLFDDPRVLPCSHNFCKKCLEGILEGSVRNSLWRPAPFKCPTCRKETSATGINS
B7: MKRN1 RING domain (UniProt Q9UHC7); chain FAVQRSKDMVCGICMEVVYEKANPSERRFGILSNCNHTYCLKCIRKWRSAKQFESKIIKSCPECRITSNFVIPSE
Target sequence (chain): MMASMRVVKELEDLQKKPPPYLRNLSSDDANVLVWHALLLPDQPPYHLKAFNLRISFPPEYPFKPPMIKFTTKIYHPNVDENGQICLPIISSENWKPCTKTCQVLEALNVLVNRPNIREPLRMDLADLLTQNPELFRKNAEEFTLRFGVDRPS
Sequence	lacZ reporter activity
B1 (SH3RF2 RING domain)	0
FQGDVDEDLICPICSGVLEEPVQAPHCEHAFCNACITQWFSQQQTCPVDRSVVTVAHLRP (RNF41 RING domain (UniProt Q9H4P4))	0
QVDKAVFHMQSVKCLKCQEQKRAVLPCQHAALCELCAEGSECPICQPGRAHTLQS (UNK RING domain (UniProt Q9C0B0))	0
B2 (TRIM5 RING domain)	0
B3 (TRIML1 RING domain)	0
B4 (RNF111 RING domain)	0
ASLPTSEEDLCPICYAHPISAVFQPCGHKSCKACINQHLMNNKDCFFCKTTIVSVEDWE (RNF123 RING domain (UniProt Q5XPI4))	0
B5 (RC3H1 RING domain)	0
DHGAVGQEMCCPICCSEYVKGEVATELPCHHYFHKPCVSIWLQKSGTCPVCRCMFPPPL (PJA1 RING domain (UniProt Q8NG27))	0
B6 (TRIM13 RING domain)	0
PAELEVQASECVVCLEREAQMIFLNCGHVCCCQQCCQPLRTCPLCRQDIAQRLRIY (LRSAM1 RING domain (UniProt Q6UWE0))	0
B7 (MKRN1 RING domain)	0

Sample 3 — technique: competition protein-binding microarray; molecule type: double-stranded DNA, one strand shown; sample: in vitro; tested at: 2 µM; together with: Pho4 competitor, 0.05 µM; direction: higher = stronger binding; all sequences stand within: … GTCTTGATTCGCTTGACGCTGCTG
Target: Centromere-binding protein 1, full length, His-tagged (CBF1, Saccharomyces cerevisiae, UniProt P17106, residues 1-351)
Chain of UniProt P17106 (whole entry, looked up): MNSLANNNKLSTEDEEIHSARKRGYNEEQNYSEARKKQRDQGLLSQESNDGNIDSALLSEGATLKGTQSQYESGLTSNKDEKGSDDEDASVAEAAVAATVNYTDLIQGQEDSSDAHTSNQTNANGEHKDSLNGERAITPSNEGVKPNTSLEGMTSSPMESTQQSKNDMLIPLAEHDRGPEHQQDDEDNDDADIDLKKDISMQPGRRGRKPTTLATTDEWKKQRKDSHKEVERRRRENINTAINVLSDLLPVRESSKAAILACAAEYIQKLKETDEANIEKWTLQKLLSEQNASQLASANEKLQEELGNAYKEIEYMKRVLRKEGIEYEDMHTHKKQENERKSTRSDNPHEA
Notes: whole 60-bp probe, lowest competitor level
Oligonucleotide	fluorescence intensity [a.u.]
ATATCTCATGTAACAAACGTGAAAAAAGCGATGATT	137
CATACCCAACCTTGTCCAGTGGGTGAAGATATTTGT	69.2
GCTATTGTATTTTATGGCGTGGGTAAAAATTCAATA	102
AAGTTGGTAAGCGACCACGTGATGGTGCTTTGGGTT	4850
TTATCTCAGTGGGTTTACGTGGGTATAGATTACGCT	59.9
CTAACGAAGGTTTGGTCAGTGGGTGACAAGCCAAGT	71.5
AAAGCGGTAATTTGGACGGTGGGTGCAGATATCTAT	73
CGTTGGATCTAGTTCCACGTGGCCGAGCTTCAAGCC	596
TTTCGTGTAGCATCGCACGTCAGACATGGATGCAAC	69.2
AAATTACTAAGTTGAAAGGTGGGTGACGCCGTATGA	67.8
GTCTTAATAGAAGGACACGTGGAATCTAAGGACGGA	944
CCGTAGAGGCTTTTGCCCGTGCTTTGAGACAACTGC	70.8
CTTTCCCGATCTTGTCACCCGACTTTAGCACATTTG	76.5
TGACAGATGCCATGGCGCTACTGTTGTAGTATTGTA	82.6
GTCTTGTCTCATTGGATCGTGGGTGTCCCCACTTCA	81.6
CGTCCTAGTGATTGTCACTCCACTTCCATGAGGAAG	91
TAAGAAAATACCGGTCATATGACAACAGAGACAAGA	669
GTAATATAGCTTTGCCACGTGCGATTTTTGGGGATA	1370
CGTCCTAGTGATTGGGTGGTGGGTGCCATGAGGAAG	80.2

Sample 4 — target: CCNA2, cyclin fold, Cln2 fusion (human); technique: yeast growth competition, sequencing; sample: yeast; notes: strong parent motif; baseline: not given; direction: higher = stronger binding
Parent: CDKN1A docking peptide (human); SKACRRLFGPVDS
Change	normalised enrichment score
SKACHRLFGPVDS [R5H]	0.779
SKACRRLWGPVDS [F8W]	3.82
SKACRKLFGPVDS [R6K]	5.05
SKACRRLFGPVPS [D12P]	5.4
SKACRRLFGPVVS [D12V]	5.17
SKACRRLFNPVDS [G9N]	5.35
SKACRRTFGPVDS [L7T]	0.409
SKACRRIFGPVDS [L7I]	1.78
SWACRRLFGPVDS [K2W]	3.08
SKACRRLKGPVDS [F8K]	0.297
SKACRRFFGPVDS [L7F]	0.757
SKACRRLFGPVHS [D12H]	5.11
SKACRRLFGPLDS [V11L]	5.44
SKACRRLSGPVDS [F8S]	0.0111
SKACKRLLGPVDS [R5K F8L]	0.3

Repeated from above (sample 4):
Change	normalised enrichment score
SKACRRLFNPVDS [G9N]	5.35
SKACRRTFGPVDS [L7T]	0.409
SKACRRIFGPVDS [L7I]	1.78
